Assay results collected from several papers.
Compare with care: the assays were run in different laboratories. ± marks the error that the study gave.
CA12: Carbonic anhydrase 12 (CA12, Homo sapiens, UniProt O43570)
Chain of UniProt O43570 (whole entry, looked up): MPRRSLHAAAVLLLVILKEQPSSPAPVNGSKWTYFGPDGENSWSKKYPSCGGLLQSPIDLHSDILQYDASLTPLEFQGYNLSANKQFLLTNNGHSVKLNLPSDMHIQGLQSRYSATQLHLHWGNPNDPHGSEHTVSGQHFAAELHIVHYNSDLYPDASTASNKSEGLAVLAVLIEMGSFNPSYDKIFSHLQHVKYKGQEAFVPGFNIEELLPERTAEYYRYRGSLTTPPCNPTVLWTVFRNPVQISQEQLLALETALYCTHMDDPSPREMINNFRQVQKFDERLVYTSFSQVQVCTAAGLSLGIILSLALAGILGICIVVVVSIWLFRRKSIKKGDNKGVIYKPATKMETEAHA
Beta-lactamase CTX-M-14: Beta-lactamase CTX-M-14 (Escherichia coli, UniProt Q9L5C7)
TACR1: Substance-P receptor (TACR1, Homo sapiens, UniProt P25103)
Chain of UniProt P25103 (whole entry, looked up): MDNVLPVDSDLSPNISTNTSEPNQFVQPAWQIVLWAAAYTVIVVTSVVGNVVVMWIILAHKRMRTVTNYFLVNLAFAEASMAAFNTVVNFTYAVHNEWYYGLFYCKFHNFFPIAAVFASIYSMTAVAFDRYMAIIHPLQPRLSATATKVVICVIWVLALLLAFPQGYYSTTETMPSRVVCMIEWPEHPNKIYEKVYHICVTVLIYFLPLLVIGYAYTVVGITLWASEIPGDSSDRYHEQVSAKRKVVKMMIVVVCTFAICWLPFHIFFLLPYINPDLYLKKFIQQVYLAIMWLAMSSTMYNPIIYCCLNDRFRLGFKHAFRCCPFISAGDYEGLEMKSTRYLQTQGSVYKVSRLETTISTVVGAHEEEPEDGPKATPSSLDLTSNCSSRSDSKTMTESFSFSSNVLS
MAPK8: Mitogen-activated protein kinase 8 (MAPK8, Homo sapiens, UniProt P45983)
Chain of UniProt P45983 (whole entry, looked up): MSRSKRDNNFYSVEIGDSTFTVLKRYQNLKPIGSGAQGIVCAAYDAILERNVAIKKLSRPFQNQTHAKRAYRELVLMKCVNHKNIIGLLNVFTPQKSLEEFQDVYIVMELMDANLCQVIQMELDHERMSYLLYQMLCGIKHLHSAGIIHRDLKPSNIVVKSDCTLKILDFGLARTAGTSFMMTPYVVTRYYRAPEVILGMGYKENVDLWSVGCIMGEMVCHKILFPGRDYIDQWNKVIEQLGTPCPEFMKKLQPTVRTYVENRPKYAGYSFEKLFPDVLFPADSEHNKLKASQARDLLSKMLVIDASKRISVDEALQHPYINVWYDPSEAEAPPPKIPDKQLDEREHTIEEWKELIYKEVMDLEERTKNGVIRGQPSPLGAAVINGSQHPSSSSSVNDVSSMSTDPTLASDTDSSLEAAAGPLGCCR
CASP1: Caspase-1 (CASP1, Homo sapiens, UniProt P29466)
Chain of UniProt P29466 (whole entry, looked up): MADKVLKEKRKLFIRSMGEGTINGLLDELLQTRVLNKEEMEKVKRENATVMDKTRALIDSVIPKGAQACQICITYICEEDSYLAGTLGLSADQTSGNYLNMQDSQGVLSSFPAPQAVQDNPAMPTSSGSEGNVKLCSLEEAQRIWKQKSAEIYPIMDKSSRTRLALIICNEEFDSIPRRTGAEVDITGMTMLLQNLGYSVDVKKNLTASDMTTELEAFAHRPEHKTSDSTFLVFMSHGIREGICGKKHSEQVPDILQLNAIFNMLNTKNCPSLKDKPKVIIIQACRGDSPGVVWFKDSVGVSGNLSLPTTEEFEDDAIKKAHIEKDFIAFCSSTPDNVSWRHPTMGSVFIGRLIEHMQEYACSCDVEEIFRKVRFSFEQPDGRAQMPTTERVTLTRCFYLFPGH
Htr1a: 5-hydroxytryptamine receptor 1A (Htr1a, Rattus norvegicus, UniProt P19327)
Chain of UniProt P19327 (whole entry, looked up): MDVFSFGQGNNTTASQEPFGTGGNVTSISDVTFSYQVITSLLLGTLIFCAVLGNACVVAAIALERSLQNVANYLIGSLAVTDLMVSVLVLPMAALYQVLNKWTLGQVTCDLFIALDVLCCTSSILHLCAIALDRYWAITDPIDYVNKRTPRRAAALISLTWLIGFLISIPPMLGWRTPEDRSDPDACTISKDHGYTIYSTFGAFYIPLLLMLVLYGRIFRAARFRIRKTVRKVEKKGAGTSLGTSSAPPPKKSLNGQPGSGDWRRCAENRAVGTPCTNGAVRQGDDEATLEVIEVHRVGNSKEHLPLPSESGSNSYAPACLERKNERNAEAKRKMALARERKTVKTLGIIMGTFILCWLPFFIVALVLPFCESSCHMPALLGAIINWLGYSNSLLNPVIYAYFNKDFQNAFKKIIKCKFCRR
BACE2: Beta-secretase 2 (BACE2, Homo sapiens, UniProt Q9Y5Z0)
Chain of UniProt Q9Y5Z0 (whole entry, looked up): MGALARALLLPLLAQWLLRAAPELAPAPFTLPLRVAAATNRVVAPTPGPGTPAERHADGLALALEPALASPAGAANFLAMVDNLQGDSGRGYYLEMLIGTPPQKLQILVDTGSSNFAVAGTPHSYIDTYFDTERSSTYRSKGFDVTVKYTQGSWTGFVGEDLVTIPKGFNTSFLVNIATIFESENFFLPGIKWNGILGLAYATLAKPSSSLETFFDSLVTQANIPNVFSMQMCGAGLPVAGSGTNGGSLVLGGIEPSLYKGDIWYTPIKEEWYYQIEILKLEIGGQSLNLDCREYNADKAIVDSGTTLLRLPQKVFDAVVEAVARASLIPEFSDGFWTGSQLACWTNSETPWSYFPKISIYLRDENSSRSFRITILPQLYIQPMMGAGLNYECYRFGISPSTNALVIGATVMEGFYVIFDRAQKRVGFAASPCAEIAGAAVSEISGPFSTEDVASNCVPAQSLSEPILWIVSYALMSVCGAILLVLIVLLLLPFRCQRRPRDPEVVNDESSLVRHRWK
CHRM4: Muscarinic acetylcholine receptor M4 (CHRM4, Homo sapiens, UniProt P08173)
Chain of UniProt P08173 (whole entry, looked up): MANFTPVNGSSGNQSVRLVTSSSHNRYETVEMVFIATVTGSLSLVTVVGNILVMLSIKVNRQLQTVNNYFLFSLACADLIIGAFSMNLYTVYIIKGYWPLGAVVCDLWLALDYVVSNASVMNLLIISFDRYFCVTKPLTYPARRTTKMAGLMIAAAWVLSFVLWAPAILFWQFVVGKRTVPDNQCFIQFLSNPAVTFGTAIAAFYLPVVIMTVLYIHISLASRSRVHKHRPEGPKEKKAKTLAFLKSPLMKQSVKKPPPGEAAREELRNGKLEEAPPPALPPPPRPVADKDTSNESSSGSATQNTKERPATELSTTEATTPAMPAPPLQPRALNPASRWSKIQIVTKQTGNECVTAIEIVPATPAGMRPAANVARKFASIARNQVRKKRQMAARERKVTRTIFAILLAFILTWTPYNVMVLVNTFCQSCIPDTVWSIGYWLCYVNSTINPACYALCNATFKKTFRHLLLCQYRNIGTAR
SLC10A1: Hepatic sodium/bile acid cotransporter (SLC10A1, Homo sapiens, UniProt Q14973)
Chain of UniProt Q14973 (whole entry, looked up): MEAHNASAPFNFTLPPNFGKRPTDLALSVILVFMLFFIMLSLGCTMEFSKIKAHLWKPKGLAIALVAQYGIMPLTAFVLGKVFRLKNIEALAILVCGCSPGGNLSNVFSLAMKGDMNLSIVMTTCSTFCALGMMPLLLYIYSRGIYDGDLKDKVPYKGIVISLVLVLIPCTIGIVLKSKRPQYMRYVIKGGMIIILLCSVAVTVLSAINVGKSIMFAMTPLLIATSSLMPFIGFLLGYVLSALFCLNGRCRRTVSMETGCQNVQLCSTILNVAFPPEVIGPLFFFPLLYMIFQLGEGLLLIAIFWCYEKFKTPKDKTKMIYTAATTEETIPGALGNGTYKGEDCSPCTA
Muscleblind-like protein 1 with (CUG)12 RNA: Muscleblind-like protein 1, with (CUG)12 RNA (Homo sapiens, UniProt Q9NR56)
Chain of UniProt Q9NR56 (whole entry, looked up): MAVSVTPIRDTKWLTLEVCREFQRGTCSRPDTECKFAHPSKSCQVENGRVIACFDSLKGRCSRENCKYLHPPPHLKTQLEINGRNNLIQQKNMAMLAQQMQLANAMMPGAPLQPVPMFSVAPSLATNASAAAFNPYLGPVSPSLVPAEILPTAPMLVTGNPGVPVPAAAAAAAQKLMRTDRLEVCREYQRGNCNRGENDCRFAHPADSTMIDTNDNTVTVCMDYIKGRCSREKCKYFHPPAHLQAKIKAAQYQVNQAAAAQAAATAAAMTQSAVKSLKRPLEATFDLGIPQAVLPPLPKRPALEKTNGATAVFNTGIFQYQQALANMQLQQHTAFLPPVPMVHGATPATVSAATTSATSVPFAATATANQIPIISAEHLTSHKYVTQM
FUT6: 4-galactosyl-N-acetylglucosaminide 3-alpha-L-fucosyltransferase FUT6 (FUT6, Homo sapiens, UniProt P51993)
Chain of UniProt P51993 (whole entry, looked up): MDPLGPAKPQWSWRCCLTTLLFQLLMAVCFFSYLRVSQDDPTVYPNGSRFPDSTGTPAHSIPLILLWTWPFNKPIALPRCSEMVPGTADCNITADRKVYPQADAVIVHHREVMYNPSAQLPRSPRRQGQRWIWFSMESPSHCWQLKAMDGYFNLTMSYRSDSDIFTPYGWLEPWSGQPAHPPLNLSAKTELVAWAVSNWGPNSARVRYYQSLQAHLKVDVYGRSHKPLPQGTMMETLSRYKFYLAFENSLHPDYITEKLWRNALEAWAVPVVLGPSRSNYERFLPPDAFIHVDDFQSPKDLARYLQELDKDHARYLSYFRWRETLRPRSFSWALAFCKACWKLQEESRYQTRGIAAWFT
5-hydroxytryptamine receptor 2A: 5-hydroxytryptamine receptor 2A (Rattus norvegicus, UniProt P14842)
Chain of UniProt P14842 (whole entry, looked up): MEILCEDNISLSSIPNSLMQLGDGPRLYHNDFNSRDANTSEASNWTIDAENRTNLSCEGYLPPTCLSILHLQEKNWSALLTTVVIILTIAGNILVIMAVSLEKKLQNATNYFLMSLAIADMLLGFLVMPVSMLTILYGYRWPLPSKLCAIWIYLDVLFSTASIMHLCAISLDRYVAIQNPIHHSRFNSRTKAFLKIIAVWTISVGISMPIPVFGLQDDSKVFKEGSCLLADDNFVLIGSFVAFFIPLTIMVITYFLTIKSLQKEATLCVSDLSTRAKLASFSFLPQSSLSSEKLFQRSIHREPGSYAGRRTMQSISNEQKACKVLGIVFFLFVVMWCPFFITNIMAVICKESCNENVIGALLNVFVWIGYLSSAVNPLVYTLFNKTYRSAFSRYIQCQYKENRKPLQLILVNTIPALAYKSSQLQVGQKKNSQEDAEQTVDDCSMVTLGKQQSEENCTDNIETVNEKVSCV
Hypoxanthine-guanine-xanthine phosphoribosyltransferase: Hypoxanthine-guanine-xanthine phosphoribosyltransferase (Plasmodium falciparum, UniProt P20035)
Chain of UniProt P20035 (whole entry, looked up): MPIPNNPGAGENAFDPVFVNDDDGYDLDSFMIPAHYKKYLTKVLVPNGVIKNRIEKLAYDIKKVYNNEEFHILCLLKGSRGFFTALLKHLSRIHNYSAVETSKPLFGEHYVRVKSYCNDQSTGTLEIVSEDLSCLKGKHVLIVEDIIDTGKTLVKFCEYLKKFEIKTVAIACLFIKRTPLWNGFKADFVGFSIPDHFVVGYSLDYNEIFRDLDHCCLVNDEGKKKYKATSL

COCCOc1cc2ncnc(Nc3cccc(-c4cn(Cc5ccc(S(N)(=O)=O)cc5)nn4)c3)c2cc1OCCOC
Ki (CA12; enzyme activity, inhibitor, stopped-flow): 6 nM

OCC1OC(Oc2ccc(C=Cc3cc(O)cc(O)c3)cc2)C(O)C(O)C1O (centres unmarked)
Ki (Xanthine dehydrogenase/oxidase (XDH, Bos taurus, UniProt P80457); uric acid formation, inhibitor; pH 10.0, 25 °C, with: xanthine): 7000 ± 800 nM

O=C(Nc1cccc(-c2nn[nH]n2)c1)c1cc(-c2ccccn2)cc(C(F)(F)F)c1
Ki (Beta-lactamase CTX-M-14; enzyme activity, inhibitor, absorbance; pH 7): 27700 nM

N=C(N)NCCC[C@H](NC(=O)[C@@H](N)Cc1ccccc1)C(=O)NCCOCCOCC(=O)NCC(=O)N1CC[C@H](F)C1
Ki (Prolyl endopeptidase FAP (FAP, Homo sapiens, UniProt Q12884); enzyme activity, inhibitor, fluorescence; pH 7.5): 55300 nM

Cc1ccccc1-c1cc(N2CCN(CCCN3C(=O)C=CC3=O)CC2)ccc1N(C)C(=O)C(C)(C)c1cc(C(F)(F)F)cc(C(F)(F)F)c1
Ki (TACR1; cell-free assay, BRET; pH 6): 12.3 nM

Cc1cccc(-c2ccc([C@@H]3[C@@H](CO)N4CCCCN(S(=O)(=O)c5nccn5C)C[C@@H]34)cc2)c1C
Ki (Insulin-degrading enzyme (IDE, Homo sapiens, UniProt P14735)): 1.7 nM

Nc1nc2c(ncn2[C@@H]2O[C@H](COP(=O)(O)OP(=O)(O)O[C@H]3O[C@@H](CNC(=O)CCc4ccccc4)[C@@H](O)[C@@H](O)[C@@H]3F)[C@@H](O)[C@H]2O)c(=O)[nH]1
Ki (4-galactosyl-N-acetylglucosaminide 3-alpha-L-fucosyltransferase 9 (FUT9, Homo sapiens, UniProt Q9Y231); enzyme activity, inhibitor): 7800 nM

NC(CC(=O)c1cccc(O)c1)C(=O)O (centres unmarked)
Ki (Kynureninase (kynU, Pseudomonas fluorescens, UniProt P83788); inhibitor, Dixon plot): 100 nM

CN(C)c1ccc(-n2cc(COC(=O)[C@]3(C)C=C(C(=O)OC(C)(C)C)C(=O)CC3)nn2)cc1
Ki (MAPK8; ligand displacement, FP): 2400 nM

CC(=O)N[C@@H](CC(C)C)C(=O)N[C@@H](CC(=O)O)C(=O)N[C@H](C(=O)N1CCC[C@H]1C(=O)N[C@H](C=O)CC(=O)O)C(C)C
Ki (CASP1; enzyme activity, inhibitor, fluorescence; pH 7): 50.1 nM

Cc1ccccc1-c1cc(N2CCCCC2)ccc1N(C)C(=O)C(C)(C)c1cc(C(F)(F)F)cc(C(F)(F)F)c1
Ki (TACR1; cell-free assay; pH 7.4): 71 nM

Clc1cc(CN2CCCC2)ccc1OCCCN1CCN(c2cccc3sccc23)CC1
Ki (Htr1a; cell-free assay, radioligand): 157 nM

COc1cccc(CNC[C@@H](O)[C@H](Cc2ccccc2)NC(=O)c2cc(C)cc(C(=O)N(C)[C@H](C)c3ccccc3)c2)c1
Ki (BACE2): 14 ± 6.6 nM

O=C1Nc2ccccc2N(C(=O)CN2CCC(CCCCNCCCCC3CCN(CCCN4C(=O)CCc5ccccc54)CC3)CC2)c2ccccc21
Ki (CHRM4; ligand displacement, radioligand): 3.31 nM

C[C@H](CCC(=O)NCC(=O)O)[C@H]1CC[C@H]2[C@@H]3C(=O)C[C@H]4C[C@H](O)CC[C@]4(C)[C@H]3CC[C@]12C
Ki (SLC10A1; transporter uptake, inhibitor, radiometric): 4210 nM

COc1ccc2nc3cc(Cl)ccc3c(NCCCCc3c(N)nc(N)nc3N)c2c1
Ki (Muscleblind-like protein 1 with (CUG)12 RNA; MBNL1-RNA binding, gel mobility shift; no tRNA, with: (CUG)12 RNA, 1000 nM MBNL1): 5500 ± 1400 nM

CC(C)CNC(=O)[C@@H](NC[C@@H](O)[C@H](Cc1ccccc1)NC(=O)c1cc(C(=O)N[C@H](C)c2ccccc2)cc(N(C)S(C)(=O)=O)c1)[C@H](C)O
Ki (BACE2): 14.6 ± 2.9 nM

CN(C)CCNC(=O)c1cccc2c(NCCCCc3c(N)nc(N)nc3N)c3ccccc3nc12
Ki (Muscleblind-like protein 1 with (CUG)12 RNA; MBNL1-RNA binding, gel mobility shift; no tRNA, with: (CUG)12 RNA, 1000 nM MBNL1): 18000 ± 5000 nM

Nc1nc2c(ncn2[C@@H]2O[C@H](COP(=O)(O)OP(=O)(O)O[C@H]3O[C@@H](CNC(=O)c4ccccc4)[C@@H](O)[C@@H](O)[C@@H]3F)[C@@H](O)[C@H]2O)c(=O)[nH]1
Ki (FUT6; enzyme activity, inhibitor): 12900 nM

O=C(Nc1cccc(-c2nn[nH]n2)c1)c1cc(-c2cc[nH]n2)cc(C(F)(F)F)c1
Ki (Beta-lactamase CTX-M-14; enzyme activity, inhibitor, absorbance; pH 7): 12600 nM

O=C(O)c1cccc(-c2ccccc2O[C@@H]2O[C@H](CO)[C@H](O)[C@H](O)[C@H]2O)c1
Ki (Adhesin FmlH, lectin domain (Escherichia coli, UniProt Q1RBS0); inhibitor, competitive bio-layer interferometry; UPEC UTI89; with: immobilized Ser-TF): 2100 nM

c1cc(N2CCN(CCCOc3ccc(CN4CCCCC4)cc3)CC2)c2ccsc2c1
Ki (Htr1a; cell-free assay, radioligand): 210 nM

CCOC(=O)C1(C)C=C(C(=O)OC)C(=O)CC1 (centres unmarked)
Ki (MAPK8; ligand displacement, FP): > 200000 nM

Fc1cc(CN2CCOCC2)ccc1OCCCN1CCN(c2cccc3sccc23)CC1
Ki (5-hydroxytryptamine receptor 2A; cell-free assay): 11.5 nM

CNC1CCC(N(Cc2ccc(OC)c(-c3ccc(C#N)cc3)c2)C(=O)c2sc3ccccc3c2Cl)CC1 (centres unmarked)
Ki (Protein smoothened (Smo, Mus musculus, UniProt P56726); ligand displacement, radioligand; cell membranes): 22 nM

O=C(Nc1cccc(-c2nn[nH]n2)c1)c1cc(-n2cccn2)cc(C(F)(F)F)c1
Ki (Beta-lactamase CTX-M-14; enzyme activity, inhibitor, absorbance; pH 7): 22500 nM

Clc1cc(OCCCN2CCN(c3cccc4sccc34)CC2)ccc1CN1CCCCC1
Ki (5-hydroxytryptamine receptor 2A; cell-free assay): 177 nM

O=c1[nH]cnc2c(CNCCCP(=O)(O)O)c[nH]c12
Ki (Hypoxanthine-guanine-xanthine phosphoribosyltransferase; enzyme activity, inhibitor; pH 7.4): 61 nM

C[C@H]1CN(C(=O)c2cn(-c3ccnc(N)n3)c3cc(C#CC4(O)CCCCC4)ccc23)CCN1
Ki (Serine/threonine-protein kinase PAK 1 (PAK1, Homo sapiens, UniProt Q13153); enzyme activity, inhibitor, FRET): 6020 nM

CNc1ccccc1C(=O)O[C@H]1[C@@H](O)[C@H](n2ccc(=O)[nH]c2=O)O[C@@H]1COP(=O)(O)OP(=O)(O)O
Ki (Adcy2/ADCY5, C1/C2 domains (Rattus norvegicus, UniProt P26769+P30803); enzyme activity, inhibitor; with: 10 mM MnCl2, 100 µM forskolin, Gsα-GTPγS): 170 ± 27 nM

O=P(O)(O)CC[C@@H](CO)NCc1c[nH]c2c(O)nc(O)nc12
Ki (Hypoxanthine-guanine-xanthine phosphoribosyltransferase; enzyme activity, inhibitor; pH 7.4): 8000 nM

C[C@H](CCC(=O)O)[C@H]1CC[C@H]2[C@@H]3[C@H](O)C[C@H]4C[C@H](OC(=O)CCC(=O)O)CC[C@]4(C)[C@H]3CC[C@]12C
Ki (SLC10A1; transporter uptake, inhibitor, radiometric): 10700 nM

O=C1Nc2ccccc2N(C(=O)CN2CCC(CCCCN3CCN(CCCCOC(=O)C4c5ccccc5Oc5ccccc54)CC3)CC2)c2ccccc21
Ki (CHRM4; ligand displacement, radioligand): 30.2 nM

Nc1nc2c(ncn2[C@@H]2O[C@H](COP(=O)(O)OP(=O)(O)O[C@H]3O[C@@H](CNC(=O)C(c4ccccc4)C4CCCCC4)[C@@H](O)[C@@H](O)[C@@H]3F)[C@@H](O)[C@H]2O)c(=O)[nH]1 (some centres unmarked)
Ki (FUT6; enzyme activity, inhibitor): 3400 nM

Clc1cc(OCCCN2CCN(c3cccc4sccc34)CC2)ccc1CN1CCOCC1
Ki (Htr1a; cell-free assay, radioligand): 146 nM

COc1ccc(/C(C)=N/NC(=O)CSc2nc3ccccc3c(=O)n2CCc2ccc(S(N)(=O)=O)cc2)cc1
Ki (CA12; enzyme activity, inhibitor, stopped-flow): 57.5 nM

Clc1cc(CN2CCCCC2)ccc1OCCCN1CCN(c2cccc3sccc23)CC1
Ki (Htr1a; cell-free assay, radioligand): 253 nM

CC[C@H](C)[C@H](NC(C)=O)C(=O)N[C@H](C(=O)N[C@H](C(=O)N[C@@H](CCCCNC(C)=O)C(=O)N[C@H](C=O)CC(=O)O)C(C)C)[C@@H](C)O
Ki (CASP1; enzyme activity, inhibitor, fluorescence; pH 7): 182 nM

Excerpt of the above:
COc1cccc(CNC[C@@H](O)[C@H](Cc2ccccc2)NC(=O)c2cc(C)cc(C(=O)N(C)[C@H](C)c3ccccc3)c2)c1
Ki (BACE2): 14 ± 6.6 nM

CNC1CCC(N(Cc2ccc(OC)c(-c3ccc(C#N)cc3)c2)C(=O)c2sc3ccccc3c2Cl)CC1 (centres unmarked)
Ki (Protein smoothened (Smo, Mus musculus, UniProt P56726); ligand displacement, radioligand; cell membranes): 22 nM

CC(=O)N[C@@H](CC(C)C)C(=O)N[C@@H](CC(=O)O)C(=O)N[C@H](C(=O)N1CCC[C@H]1C(=O)N[C@H](C=O)CC(=O)O)C(C)C
Ki (CASP1; enzyme activity, inhibitor, fluorescence; pH 7): 50.1 nM

O=C(O)c1cccc(-c2ccccc2O[C@@H]2O[C@H](CO)[C@H](O)[C@H](O)[C@H]2O)c1
Ki (Adhesin FmlH, lectin domain (Escherichia coli, UniProt Q1RBS0); inhibitor, competitive bio-layer interferometry; UPEC UTI89; with: immobilized Ser-TF): 2100 nM
